Assay results pooled from the literature.
Lines come from different studies, so protocols differ. ± gives the spread as reported.
B1: DMGDH H109R (Homo sapiens, UniProt Q9UI17); chain ETVIIGGGCVGVSLAYHLAKAGMKDVVLLEKSELTAGSTWHAAGLTTYFHPGINLKKIRYDSIKLYEKLEEETGQVVGFHQPGSIRLATTPVRVDEFKYQMTRTGWHATEQYLIEPEKIQEMFPLLNMNKVLAGLYNPGDGHIDPYSLTMALAAGARKCGALLKYPAPVTSLKARSDGTWDVETPQGSMRANRIVNAAGFWAREVGKMIGLEHPLIPVQHQYVVTSTISEVKALKRELPVLRDLEGSYYLRQERDGLLFGPYESQEKMKVQDSWVTNGVPPGFGKELFESDLDRIMEHIKAAMEMVPVLKKADIINVVNGPITYSPDILPMVGPHQGVRNYWVAIGFGYGIIHAGGVGKYLSDWILHGEPPFDLIELDPNRYGKWTTTQYTEAKARESYGFNNIVGYPKEERFAGRPTQRVSGLYQRLESKCSMGFHAGWEQPHWFYKPGQDTQYRPSFRRTNWFEPVGSEYKQVMQRVAVTDLSPFGKFNIKGQDSIRLLDHLFANVIPKVGFTNISHMLTPKGRVYAELTVSHQSPGEFLLITGSGSELHDLRWIEEEAVKGGYDVEIKNITDELGVLGVAGPQARKVLQKLTSEDLSDDVFKFLQTKSLKVSNIPVTAIRISYTGELGWELYHRREDSVALYDAIMNAGQEEGIDNFGTYAMNALRLEKAFRAWGLEMNCDTNPLEAGLEYFVKLNKPADFIGKQALKQIKAKGLKRRLVCLTLATDDVDPEGNESIWYNGKVVGNTTSGSYSYSIQKSLAFAYVPVQLSEVGQQVEVELLGKNYPAVIIQEPLVLTEPTRNRLQKKGGKDKT
B2: susA 23-617 (Bacteroides thetaiotaomicron, UniProt Q8A1G0); sequence looked up; chain TSTIKKVAPTFWWAGMKNPELQILLYGDRISSADVSLSADNITLQEVVKQENPNYLVLYLDLSKAAPQNFDIILKQGKKQTKIPYELKQRRPNASAVEGFDSSDVLYLIMPDRFANGNPSNDIIPGMLEGNVDRNEPFARHGGDLKGIENHLDYIADLGVTSIWLNPIQENDMKEGSYHGYAITDYYQVDRRFGSNEEFRKLTQEANAKGLKVVMDMIFNHCGSDNYLFKDMPSKDWFNFEGNYVQTSFKTATQMDPYASDYEKKIAIDGWFTLTMPDFNQRNRHVATYLIQSSIWWIEYAGINGIRQDTHPYADFDMMARWCKAVNEEYPKFNIVGETWLGNNVLISYWQKDSRLAYPKNSNLPTVMDFPLMEEMNKAFDEETTEWNGGLFRLYEYLSQDIVYSHPMSLLTFLDNHDTSRFYRSEADTKNLDRYKQALTFLLTTRGIPQIYYGTEILMAADKANGDGLLRCDFPGGWPNDTKNCFDAANRTPQQNEAFSFMQKLLQWRKGNEVIAKGQLKHFAPNKGVYVYERKYGDKSVVVFLNGNDREQTIDLVPYQEILPASSAFDLLTEKKVELRNELTLPSREIYLLSF
Chain of UniProt P11388 (whole entry, looked up): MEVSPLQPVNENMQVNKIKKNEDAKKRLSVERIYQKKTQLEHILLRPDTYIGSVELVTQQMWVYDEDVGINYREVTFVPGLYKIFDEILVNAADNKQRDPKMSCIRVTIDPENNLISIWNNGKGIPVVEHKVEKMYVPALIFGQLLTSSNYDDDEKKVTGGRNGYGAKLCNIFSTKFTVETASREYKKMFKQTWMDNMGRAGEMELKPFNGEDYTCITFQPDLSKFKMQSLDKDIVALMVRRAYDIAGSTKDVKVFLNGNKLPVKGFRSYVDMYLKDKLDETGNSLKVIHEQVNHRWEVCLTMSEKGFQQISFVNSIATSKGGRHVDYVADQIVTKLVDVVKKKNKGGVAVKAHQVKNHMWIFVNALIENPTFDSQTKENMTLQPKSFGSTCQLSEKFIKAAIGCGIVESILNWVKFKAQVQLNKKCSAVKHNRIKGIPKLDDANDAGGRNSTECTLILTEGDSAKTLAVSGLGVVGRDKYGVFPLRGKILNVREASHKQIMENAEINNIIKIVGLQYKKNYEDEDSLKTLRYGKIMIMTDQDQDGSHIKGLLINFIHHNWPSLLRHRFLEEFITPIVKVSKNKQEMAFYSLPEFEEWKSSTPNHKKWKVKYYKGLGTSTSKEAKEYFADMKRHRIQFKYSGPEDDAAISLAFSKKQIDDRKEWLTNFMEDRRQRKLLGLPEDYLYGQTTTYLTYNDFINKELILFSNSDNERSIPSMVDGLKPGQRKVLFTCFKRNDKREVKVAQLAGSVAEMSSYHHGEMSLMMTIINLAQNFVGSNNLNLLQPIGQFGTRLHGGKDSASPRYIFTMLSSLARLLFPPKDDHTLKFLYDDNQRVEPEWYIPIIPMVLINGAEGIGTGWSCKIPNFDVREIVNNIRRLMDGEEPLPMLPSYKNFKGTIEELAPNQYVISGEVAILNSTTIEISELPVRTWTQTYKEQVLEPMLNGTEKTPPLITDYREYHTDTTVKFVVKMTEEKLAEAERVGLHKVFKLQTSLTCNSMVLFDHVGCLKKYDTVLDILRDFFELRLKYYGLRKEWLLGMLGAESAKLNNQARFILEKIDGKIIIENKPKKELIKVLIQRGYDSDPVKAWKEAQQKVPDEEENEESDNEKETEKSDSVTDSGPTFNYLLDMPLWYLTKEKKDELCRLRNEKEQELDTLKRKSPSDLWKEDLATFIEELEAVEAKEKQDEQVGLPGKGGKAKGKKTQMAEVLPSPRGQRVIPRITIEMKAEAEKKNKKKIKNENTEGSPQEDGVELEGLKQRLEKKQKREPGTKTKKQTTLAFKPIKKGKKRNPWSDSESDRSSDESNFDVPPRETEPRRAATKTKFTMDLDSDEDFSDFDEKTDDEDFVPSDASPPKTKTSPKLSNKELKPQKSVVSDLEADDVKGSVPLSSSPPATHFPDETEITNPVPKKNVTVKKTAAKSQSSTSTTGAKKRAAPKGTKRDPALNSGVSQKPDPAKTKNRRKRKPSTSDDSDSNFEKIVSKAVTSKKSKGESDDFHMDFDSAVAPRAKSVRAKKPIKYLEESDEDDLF

`enzyme (Bacteroides thetaiotaomicron, UniProt Q89YZ9)` has a Km of 88 µM (O=[N+]([O-])c1ccc(O[C@H]2O[C@H](CO)[C@@H](O)[C@H](O)[C@H]2O)cc1; steady-state kinetics; pH 6.6).
COC(=O)Nc1c(N)nc(-c2nn(Cc3ccccc3F)c3ncc(F)cc23)nc1N has a Cmax of 0.142 µg/mL (human, fasting, plasma; 5 mg single dose, alone, geometric mean).
For CC1COc2ccccc2N1C(=O)C(Cl)Cl (centres unmarked), the remaining compound was 78 ± 1% (carboxylesterase; female rhesus monkey liver cytosol; 5 µM, 30 min, pH 7.4, without GSH).
For `B1 (DMGDH H109R)`, the Km was 2550 µM (CN(C)CC(=O)O; steady-state kinetics; pH 7.5, 25 °C, single Km, mutant, no THF, added: ferricenium hexafluorophosphate 200 µmol/L).
For Fc1ccccc1Cc1nc(-c2nc(C(F)(F)F)n[nH]2)cn2ccnc12, “subjects with musculoskeletal TEAEs” read 7.1% (healthy human subjects, both sexes; oral, 10 mg, fasted).
N#CCC1CCN(c2nc(Nc3ccc(N4CCC(O)CC4)cc3)c3c(=O)[nH]ncc3n2)CC1 — result for “osteopontin level difference”: 1 (vs placebo, Olink multiplex; human, serum; 20 mg, day 29, unit not given; baseline: placebo).
`B2 (susA 23-617)`: “subunits per oligomer” 2 (itself; SEC).
COc1cc([C@@H]2c3cc4c(cc3[C@@H](O[C@@H]3O[C@@H]5CO[C@@H](C)O[C@H]5[C@H](O)[C@H]3O)[C@H]3COC(=O)[C@H]23)OCO4)cc(OC)c1O has an inhibition of 86.7% (TOP2A (Homo sapiens, UniProt P11388); enzyme activity, inhibitor; 15.6 µM).

A few entries again:
COc1cc([C@@H]2c3cc4c(cc3[C@@H](O[C@@H]3O[C@@H]5CO[C@@H](C)O[C@H]5[C@H](O)[C@H]3O)[C@H]3COC(=O)[C@H]23)OCO4)cc(OC)c1O has an inhibition of 86.7% (TOP2A (Homo sapiens, UniProt P11388); enzyme activity, inhibitor; 15.6 µM).
